{"data": "Results collected from several papers", "note": "Protocols differ between the studies behind these lines. Several values in a cell are separate wells, animals, samples, runs or records. Numbers after ± are the reported error."}
{"SMILES": "O=C(O)CNC(=O)c1cc2ccccc2n1Cc1ccc(Br)c2ccccc12", "system": "mouse, acute hyperuricaemia model, serum", "setting": "oral, 2 mg/kg, first screening", "quantity": "serum uric acid", "value": "719 µM"}
{"SMILES": "Cc1cn(-c2cc(NC(=O)c3ccc(C)c(Nc4nccc(-c5cccnc5)n4)c3)cc(C(F)(F)F)c2)cn1", "system": "human patients", "setting": "dose not given, 12 to 6 months, unit not given", "how to read": "reference: placebo", "quantity": "ADAS-Cog maze time change", "value": -3.78}
{"SMILES": "[131I-].[Na+]", "system": "human, paediatric intermediate-risk differentiated thyroid carcinoma", "setting": "100-150 mCi", "quantity": "complete response after single dose", "value": "76.3%"}
{"SMILES": "CC(C)[C@@H](CS(=O)(=O)C(C)C)N1C(=O)[C@@](C)(CC(=O)O)C[C@H](c2cccc(Cl)c2)[C@H]1c1ccc(Cl)cc1", "system": "mouse, subcutaneous PDX", "setting": "25 mg/kg, 4 weeks", "how to read": "reference: vehicle", "quantity": "median survival extension", "value": "> 5 fold"}
{"SMILES": "N.N.[Cl][Pt][Cl]", "system": "KSN/Slc nude mice, SAS xenograft", "setting": "dose not given, day 6", "quantity": "tumour volume", "value": "177 mm3 and 253 mm3 and 260 mm3 and 113 mm3 and 190 mm3 and 59.1 mm3 and 402 mm3 and 109 mm3"}
{"SMILES": "CCCCCN1C[C@H](O)[C@@H](O)[C@H](O)[C@@H]1CO", "system": "Hexb-/- mouse", "setting": "30 mg/kg/day", "how to read": "reference: untreated", "quantity": "median survival increase", "value": "15%"}
{"SMILES": "CCCCC1(CCCC)CN(c2ccccc2)c2cc(SC)c(OCC(=O)N[C@@H](C(=O)NCC(=O)O)c3ccccc3)cc2S(=O)(=O)C1", "test": "item: HDL cholesterol", "system": "human, serum", "setting": "2.5 mg once daily, day 8", "quantity": "serum HDL-C", "value": "55.8 mg/dL"}
{"SMILES": "C[C@]12CC[C@@H](O)C[C@@H]1CC[C@@H]1[C@@H]2CC[C@]2(C)[C@@H]([N+](=O)[O-])CC[C@@H]12", "test": "protection against pentylenetetrazol seizures", "system": "male NIH Swiss mice", "setting": "intraperitoneal, 15 min before test, with: pentylenetetrazol 80 mg/kg s.c.", "quantity": "ED50", "value": "12.9 mg/kg"}
{"SMILES": "CN1CCN(S(=O)(=O)c2cc([N+](=O)[O-])ccc2N(CCOS(C)(=O)=O)CCOS(C)(=O)=O)CC1", "system": "NSG mice, sample DA PDX", "setting": "intraperitoneal, 25 mg/kg weekly x3", "how to read": "reference: treated over vehicle", "quantity": "EFS ratio (T/C)", "value": "> 55.4"}
{"SMILES": "CC1(C)C(=CC=C2CCCC(C=CC3=[N+](CCCCS(=O)(=O)[O-])c4ccc(S(=O)(=O)O)cc4C3(C)C)=C2Oc2ccc(S(=O)(=O)O)cc2)N(CCCCCC(=O)NCCCC[C@H](NC(=O)[C@H](CO)NC(=O)CNC(=O)CNC(=O)CNC(=O)[C@H](Cc2ccccc2)NC(=O)[C@H](CCCNC(=N)N)NC(=O)[C@@H]2CCCN2C(=O)[C@H](CC(N)=O)NC(=O)[C@@H]2CCCN2C(=O)[C@H](CO)NC(=O)[C@@H](N)CCCCN)C(N)=O)c2ccc(S(=O)(=O)O)cc21", "test": "ex vivo photoacoustic imaging", "system": "CPC;Apc mice, excised colonic adenoma", "quantity": "tumour to background ratio", "value": 2.25}
{"SMILES": "C[C@H](NC(=O)c1c(C(F)F)nn(C)c1Oc1cccc(C(F)(F)F)c1)c1ccc(C(=O)O)cc1", "system": "human, advanced tumours", "setting": "125 mg", "quantity": "deaths", "value": "0%"}
{"SMILES": "CC[C@H](C)[C@@H]1NC(=O)[C@@H]2CCCN2C(=O)[C@H](CC(C)C)NC(=O)[C@H](CC(C)C)NC(=O)CNC(=O)[C@@H](NC(=O)[C@@H](NC(=O)[C@H](CC(=O)O)NC(=O)CNC(=O)[C@@H](NC(=O)[C@H](C)NC(=O)CNC(=O)[C@H](CCCCN)NC(=O)[C@H](CC(C)C)NC(=O)[C@H](CC(C)C)NC(=O)[C@H](CCCCN)NC(=O)CNC(=O)[C@@H](NC(=O)[C@@H](N)CC(C)C)C(C)C)C(C)C)C(C)C)CSSC[C@@H](C(=O)O)NC1=O", "test": "RNA-seq, item: novel.265 mRNA", "system": "mouse traumatic brain injury, frontal cortex and hippocampus", "setting": "dose not given", "how to read": "reference: TBI plus compound vs TBI", "quantity": "log2 fold change", "value": -3.17}
{"SMILES": "C[C@H]1O[C@@H](O[C@H]2CC[C@@]3(C)[C@@H](CC[C@]4(C)[C@@H]3C=C[C@]35OC[C@@]6(CCC(C)(C)C[C@H]63)[C@@H](O)C[C@]54C)[C@]2(C)CO)[C@H](O)[C@@H](O[C@@H]2O[C@H](CO)[C@@H](O)[C@H](O)[C@H]2O)[C@H]1O", "system": "Mus musculus, chronic-plus-binge ethanol-fed, AAV8-TBG-Null vector, plasma", "setting": "oral, high dose, 5 h", "quantity": "ALT activity", "value": "13.6 U/L and 19.4 U/L and 18.9 U/L and 27.1 U/L and 24.8 U/L and 24.6 U/L"}
{"SMILES": "CN1CCN(C(C(=O)NCCc2ccc(F)cc2)c2ccc(C#N)cc2)CC1 (stereo not drawn)", "test": "qPCR", "system": "rat, male and female, prefrontal cortex", "setting": "ip, 100 mg/kg twice daily, 7 days, with: clavulanic acid 10 mg/kg", "how to read": "reference: vehicle", "quantity": "GLT-1 mRNA level", "value": "no effect"}
{"SMILES": "O=C(O)/C=C/C(=O)O.Oc1cccc2[nH]cc(CCNCc3ccccc3)c12", "system": "C57BL/6J mice", "setting": "subcutaneous, 1 mg/kg, 30 min", "quantity": "distance travelled", "value": "2480 ± 237 cm"}
{"note": "A few entries again:"}
{"SMILES": "C[C@]12CC[C@@H](O)C[C@@H]1CC[C@@H]1[C@@H]2CC[C@]2(C)[C@@H]([N+](=O)[O-])CC[C@@H]12", "test": "protection against pentylenetetrazol seizures", "system": "male NIH Swiss mice", "setting": "intraperitoneal, 15 min before test, with: pentylenetetrazol 80 mg/kg s.c.", "quantity": "ED50", "value": "12.9 mg/kg"}
{"SMILES": "Cc1cn(-c2cc(NC(=O)c3ccc(C)c(Nc4nccc(-c5cccnc5)n4)c3)cc(C(F)(F)F)c2)cn1", "system": "human patients", "setting": "dose not given, 12 to 6 months, unit not given", "how to read": "reference: placebo", "quantity": "ADAS-Cog maze time change", "value": -3.78}
